# Results from different studies.
# Protocols differ between the studies behind these lines. ± gives the spread as reported.
Structure (SMILES),assay,system,conditions,scale,measurement,value
O=C1NCCc2nc(OCc3cccc(F)c3)ccc21,refers to: Salivation,Sprague-Dawley rat male,"oral, 100 mg/kg, 30 min",direction not given,Irwin test score,0
Cc1nc(-c2ccc(OCC(C)C)c(C#N)c2)sc1C(=O)O,,"human, plasma","oral, 40 mg, added: verinurad 10 mg",baseline: test over reference,geometric mean ratio Cmax,98.9
CCc1cc(C(=O)NC)c2nccc(N3CCc4c(cc(Cn5ccnc5)cc4-c4cn(C)nc4C(F)(F)F)C3=O)c2c1,,Sprague Dawley rat,"oral, 100 mg/kg twice daily, day 2, 7-day toxicology study",,body weight,219 ± 5.5 g
C[Si](C)(C)O[Si](C)(C)O[Si](C)(C)C,,1-octanol/water,"1.9-6.0 µg/L in water, 35.0 °C",,log KOW,6.75
C[C@@H](NC(=O)N1C(=O)[C@H](Cc2ccnc(N)c2)[C@H]1C(=O)O)C1CCCCC1,UPLC-MS/MS,"healthy adult Chinese volunteers, plasma","continuous intravenous infusion, 0.3 mg/kg/h, day 6 of 5-day infusion, mean",,Vd,0.546 L/kg
CCc1c(-c2ccccc2)c(-c2ccccc2)nn1-c1ccccc1-c1cccc(OCC(=O)O)c1,,"female Sprague-Dawley rat, uterus","oral, 10 mg/kg, 1 h",,concentration,1180 ng/g
CCCC1CCC(c2ccc(OCC)c(F)c2F)CC1 (centres unmarked),,"rat, placenta","1000 ng/mL in perfusate, middle dose, mixture of 21 LCMs",,median placental accumulation,12 ng/g
CCn1ccc2nc(-c3ccccn3)nc(N3CCC(c4ccccn4)C3)c21 (centres unmarked),,Japanese Pharmacopoeia disintegration test solution 2,pH 6.8,,kinetic solubility,88 µg/mL
O=S(=O)(NCc1ccccn1)c1cc(Cl)c(Cl)cc1Cl,,aqueous buffer,pH 7.4,,thermodynamic solubility,< 10.7 µM
N#Cc1ccc2c(c1)[C@H]1CCCN(C(=O)c3ccc4[nH]cnc4c3)[C@H]1C2,,human males,"40 mg, end of trial",,total testosterone level,16.8 nmol/L
O=C(Nc1nc2cccc(-c3ccc(CN4CCS(=O)(=O)CC4)cc3)n2n1)C1CC1,refers to: pharyngitis,human rheumatoid arthritis patients,"oral, 150 mg once daily, 4 weeks, regardless of relatedness",,treatment-emergent adverse events,0%
CCCCC1=NC2(CCCC2)C(=O)N1Cc1ccc(-c2ccccc2S(=O)(=O)Nc2noc(C)c2C)c(COCC)c1,,"healthy adult volunteers, plasma","oral, 50 mg, single dose, fasted, crushed tablet",,AUC(0-inf),12000 ng·h/mL
CN1CCC[C@H](CN2c3ccccc3Sc3ccccc32)C1.Cl,,"fasted female ICR mouse, liver","oral, 16 mg/kg",,Tmax,15 min
CCN1/C(=C/C(C)=O)Sc2ccc(F)cc21,,cynomolgus monkey,"oral, 100 mg/kg, 24 h post-dose",,diastolic blood pressure,75 ± 6 mmHg
COc1cc2nccc(Oc3ccc(NC(=O)c4cc5c(n(-c6ccccc6)c4=O)CCCC5=O)nc3)c2cc1OC,,"human, relapsed/refractory AML","oral, 3 mg once daily, grade ≥3, any causality",,patients with Klebsiella sepsis,10%
Cc1cccc(CNC(=O)c2cn(CCNC(=O)c3ccccc3Sc3c([N+](=O)[O-])ncn3C)c3cc4c(cc3c2=O)OC(F)(F)O4)n1,,"Sprague-Dawley rat, male, whole blood","intramuscular, 30 mg/kg of parent compound",,AUC(0-inf),109 ng·h/mL
O=C(N[C@H](Cc1c[nH]c2ccccc12)C(=O)Nc1ccncc1)c1ccc(-c2ccc(F)c(Cl)c2)cc1F,,"Swiss Webster mouse, female, liver","oral, 50 mg/kg, 8 h, 20% Kolliphor vehicle",,concentration,60.8 µM
CN1C[C@H](COc2nccc3c(NCc4ccco4)cc(Cl)nc23)OC1=O,,rat Crl:CD(SD) male,"oral, 1000 mg/kg, single dose",,general condition,negative
Cn1cc(Nc2nccc(-c3ccc4c(c3)CN(C3COC3)CC[C@H]4NC(=O)c3cn(C(C)(C)C)nn3)n2)cn1,,"human, whole blood","50 mg twice daily, day 7",baseline: pre-dose baseline,B cell count change,130%
N#Cc1cc(NC(=O)C(=O)O)c(Cl)c(NC(=O)C(=O)O)c1,,excised Bama miniature pig skin,24 h,,skin retention,1.67 ± 0.152 µmol/cm²

# Excerpt of the above:
Structure (SMILES),assay,system,conditions,scale,measurement,value
COc1cc2nccc(Oc3ccc(NC(=O)c4cc5c(n(-c6ccccc6)c4=O)CCCC5=O)nc3)c2cc1OC,,"human, relapsed/refractory AML","oral, 3 mg once daily, grade ≥3, any causality",,patients with Klebsiella sepsis,10%
